Results from different studies.
A part holds a random share of what one study measured.

Study 1 — technique: RNA Bind-n-Seq; form: RNA; sample: in vitro; tested at: 365 nM; relative to: no-protein control; reading: higher = stronger binding; endpoint: RBNS enrichment (R)
Target: RNA binding protein fox-1 homolog 2, RRM domain, GST-SBP tag (RBFOX2, Homo sapiens, UniProt O43251-10, residues 100-194)
Setting: natural RNA segment, single round, ends assumed
Target sequence (chain): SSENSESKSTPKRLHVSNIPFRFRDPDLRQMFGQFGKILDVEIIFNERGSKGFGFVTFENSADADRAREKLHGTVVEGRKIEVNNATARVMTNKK
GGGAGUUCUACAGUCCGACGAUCUCUGCACACUCAAAGGCUAAACUGGUGUCAGUCCUUUUUUCCUUUGUUCCAAAUAAAAGAUUAAACCAAUGGCCUUAGGGUGUCUUUUGGACCAGGUUGAGGGGCAGGGGUGGAAUUCUCGGGUGCCAA: 0.402
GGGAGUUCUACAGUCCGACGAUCCUAGCUUCAAAUGAUCCUCUCACCUCGGCCUCCCAAAAUCCUGGGAUUCCAGGCGUCAGCCACUGCUCUCGGCCCUCUUACACCAUUUUGUUUGAUUGUCUAGUCCCUGUUGGAAUUCUCGGGUGCCAA: 0.261
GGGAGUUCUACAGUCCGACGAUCCCAAGAGGCCAAACUUCUAGGUGAAGUUUCUAGACACCUUAAUAUGAACAGAGCUAGACCUGAGCCAGUAAACAGUCUAAACCAGAAUAUGCCUUAUUUAUGUAUUCAUGUGGAAUUCUCGGGUGCCAA: 0.476
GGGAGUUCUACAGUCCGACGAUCUUCCUGCAGUUCUCAAAGGGGAGCCUGCAGACUAGGCCUUCAGAGGGUUCCUUCUGUUUCCUAUUUGGGCACUGAGCCAGAGGAUGGAGUUGUCUCCCUGACAAAUAAUGUGGAAUUCUCGGGUGCCAA: 0.322
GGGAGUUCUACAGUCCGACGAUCCCUGUGACGCCUGAGGCCUCCAGCAUAGCACCGUGGGGCCAGGGAGCCCGAAUGGCCCCAGCAUCAGUGCCAAGGCUGAGCUGACGACUCUCCAGUGUUGUCCAAGGAAAUGGAAUUCUCGGGUGCCAA: 0.572
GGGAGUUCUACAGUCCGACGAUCGAAAGAUUAAUCACACAAUAGAGGCAUAUGCGCUGUCAUUUUUCCUUUUUUUAAUUGUUAAAUUGAAUUUUAUACCAAUGUUUAAACUUAAAUUGGGUGUUAGCUUGAGGUGGAAUUCUCGGGUGCCAA: 0.415
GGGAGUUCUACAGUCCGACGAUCCUCCCUAGUAGUUGGGACUACAGGCGCCCGCCACCAUGCUCAGCUAAUUUUUUGUAUUUUUAGUAGAGACGGUUUCAUCGUGUUAGCCAGGAUGGUCUCGAUCUCCUGACUGGAAUUCUCGGGUGCCAA: 0.338
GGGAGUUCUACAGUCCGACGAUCAUUAAAAAAAUCAAAAUAAUAUUCUGUGACAAUGACAGGUGAAAUUUAUAUGUGACAAGUGAAAAUUAUAUGAAAUUUAAGAGUCCAUAAAUAAAAUUUGUUGGAACACAUGGAAUUCUCGGGUGCCAA: 0.764

Study 2 — technique: aptamer microarray, sandwich; form: DNA with 2'F-ANA; sample: in vitro; tested at: 200 nM; with: Cy3 exosite-II aptamer, 400 nM; reading: higher = stronger binding; endpoint: mean fluorescence intensity; sequence: GGTTGGTGTGGTTGG
Target: Prothrombin, mature alpha-thrombin (F2, Homo sapiens, UniProt P00734)
Setting: whole 15-mer aptamer, many near background
2'F-ANA at 1 2 3 7 8 10 13 14: 52.3 a.u.
2'F-ANA at 5 6 12 14 15: 98.9 a.u.
2'F-ANA at 2 4 6 8 9 11 14 15: 85.2 a.u.
2'F-ANA at 1 2 8 9 12 13 14 15: 73.1 a.u.
2'F-ANA at 1 2 3 4 7 9 10 12 14 15: 50.1 a.u.
2'F-ANA at 1 3 4 5 7 8 9 10 11 12 15: 52.1 a.u.
2'F-ANA at 1 2 5 8 9 11 12 13 15: 67.5 a.u.
2'F-ANA at 1 3 4 11 13 15: 138 a.u.
2'F-ANA at 8 11 12 14 15: 236 a.u.
2'F-ANA at 8 11 12 13 14: 232 a.u.
2'F-ANA at 1 2 6 8 10 15: 55.5 a.u.
2'F-ANA at 7 9 10 13 14: 131 a.u.
2'F-ANA at 1 3 4 5 7 13 14 15: 45.9 a.u.
2'F-ANA at 3 4 5 6 7 8 10 13 14: 46.4 a.u.
2'F-ANA at 1 5 6 8 10 12 13 15: 49.5 a.u.
2'F-ANA at 1 5 7 13 14 15: 45.2 a.u.
2'F-ANA at 2 3 4 6 8 15: 572 a.u.
2'F-ANA at 2 4 6 9 14 15: 109 a.u.
2'F-ANA at 2 3 4 5 8 9 10 14: 49.9 a.u.
2'F-ANA at 3 4 5 6 8 11 12 15: 170 a.u.
2'F-ANA at 2 4 5 6 8 10 11 15: 59.8 a.u.
2'F-ANA at 4 5 6 8 9 10 11 13 14: 48.4 a.u.
2'F-ANA at 3 4 6 7 10 12 13 14 15: 164 a.u.

Study 3 — technique: RNA Bind-n-Seq; form: RNA; sample: in vitro; tested at: not given; relative to: input RNA pool; reading: higher = stronger binding; endpoint: bound/input enrichment
Target: RING finger protein unkempt homolog, zinc fingers 1-6, GST-SBP tag (UNK, Homo sapiens, UniProt Q9C0B0, residues 30-357)
UniProt Q9C0B0, sequence (30-357, looked up): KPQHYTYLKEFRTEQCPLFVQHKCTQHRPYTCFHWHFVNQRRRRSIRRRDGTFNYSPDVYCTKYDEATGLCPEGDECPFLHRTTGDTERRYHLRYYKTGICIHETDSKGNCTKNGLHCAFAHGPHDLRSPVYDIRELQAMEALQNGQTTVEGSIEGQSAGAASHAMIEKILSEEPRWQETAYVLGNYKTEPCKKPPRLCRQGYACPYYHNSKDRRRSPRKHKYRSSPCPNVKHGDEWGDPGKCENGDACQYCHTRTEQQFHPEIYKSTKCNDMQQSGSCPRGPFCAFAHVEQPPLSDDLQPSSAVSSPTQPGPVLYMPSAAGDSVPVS
Setting: RNA with constant flanks, human and mouse sites, ends assumed
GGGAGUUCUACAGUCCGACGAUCGAAGUAACCAUGGAAACAGACAAGAAAACUCAUUAUGGGCUACUCUUUGAUGAGUUUCAAGGCCUUUCACAUCUAGAAGCUCUGGAGAUGCUUUCCCGAGAAAGUGAGAUAAAGGUGAAACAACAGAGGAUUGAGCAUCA: 0.317 ratio
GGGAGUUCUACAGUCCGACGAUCUCAAAGGAGGCUAUGGAAAGGGCAAAUGGAAUGGAGCUGGAUGGUAGAAGAAUUCGGGUGGAUUAUUCUAUAACCAAGAGAGCGCACACACCAACACCAGGCAUCUACAUGGGCAGACCACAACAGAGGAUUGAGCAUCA: 0.231 ratio
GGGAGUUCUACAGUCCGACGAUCAAAAGUUUCCUGAAGUCUGAAUUCAGUGAGGAAAACCUUGAGUUCUGGGUUGCCUGUGAGAAUUACAAGAAGAUCAAGUCCCCCAUCAAAAUGGCGGAGAAGGCAAAGCAAAUUUAUGAACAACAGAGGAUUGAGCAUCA: 0.304 ratio
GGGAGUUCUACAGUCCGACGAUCCGAGUUGAUCAAGGGGCUGCAACAGCUCUCAGUAGGAAAGACAAUGCCAGCAACAUAUAUAGCAAAAAUACUGACUAUACUGAACUUCACCAGCAAAAUACAGAUUUGAUAUAUCAGACUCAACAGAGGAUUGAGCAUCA: 4.49 ratio
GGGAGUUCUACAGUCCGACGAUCUAAAGAGCAGCUGGAUUCAUCUAAUAGUACCAUUGCCAUUUUACAAACUGAGAAAGACAAACUAGAGUUGGAAAUUACAGAUUCUAAAAAAGAACAAGAUGAUCUCUUGGUGCUCUUGGCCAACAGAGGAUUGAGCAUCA: 0.84 ratio
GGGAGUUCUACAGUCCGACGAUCGAAGUGGUGUCACCAUCUCAGUCCGUGACUGGCAGUGCUGGUCACACACCUUACUAUCAAUCUCCUACUGACGAGAAAUCCAGUCAUCUCCCUACAGAAGUCAUUGAAAAACCACCAGCACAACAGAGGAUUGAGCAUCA: 0.212 ratio
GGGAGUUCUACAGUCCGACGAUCGACAUCAAUUGCUGCAACUGAACUUGAAGAUGAUGACGAUGACUAUUCAUCAUCUACGAGUUUGCUUGGUCAGAAGAAGCCAGGAUAUCAUGCCCCUGUGGCAUUGCUUAAUGAUAUACCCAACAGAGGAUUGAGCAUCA: 0.114 ratio
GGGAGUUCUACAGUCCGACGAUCGGACAGACGUGUGGAAAACAUAAAUGUCCAAGAAACACUUUUGUCUUAAUGGUCUGUGGAAAUAGGUUCACUCCUUGAAAUUAAGGUCUAAAAGGUGUUUUGUGGUUUCUGUAUUUCUUCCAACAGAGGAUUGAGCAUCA: 0.218 ratio

Study 4 — technique: protein-binding microarray; form: double-stranded DNA, one strand shown; sample: in vitro; tested at: 0.8 µM; setting: whole 60-bp probe, no competitor; reading: higher = stronger binding; endpoint: fluorescence intensity
Target: Centromere-binding protein 1, full length, N-terminal tag (CBF1, Saccharomyces cerevisiae, UniProt P17106, residues 1-351)
UniProt P17106, sequence (whole entry, looked up): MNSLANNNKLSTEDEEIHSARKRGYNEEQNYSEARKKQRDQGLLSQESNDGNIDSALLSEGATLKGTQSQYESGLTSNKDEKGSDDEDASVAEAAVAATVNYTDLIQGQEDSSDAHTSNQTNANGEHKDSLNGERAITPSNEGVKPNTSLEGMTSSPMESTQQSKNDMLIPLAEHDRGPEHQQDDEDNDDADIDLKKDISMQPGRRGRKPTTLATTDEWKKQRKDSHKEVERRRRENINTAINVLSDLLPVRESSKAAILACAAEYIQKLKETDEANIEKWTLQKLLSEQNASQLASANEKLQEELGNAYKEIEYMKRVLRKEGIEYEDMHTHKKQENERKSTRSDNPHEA
GAATAAGAAGGTGATCAGGTAGTTCGTCATTCGTAGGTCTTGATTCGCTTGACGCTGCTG: 542 a.u.
CTACGTAACGGCCGTGATGCGGCCTGAGCTCACTTCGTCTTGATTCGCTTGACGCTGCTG: 496 a.u.
CTAGATCTCAGAAGGCATGTGAAAAAAAATTCGTTCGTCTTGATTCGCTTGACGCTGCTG: 732 a.u.
GAAGCTGATACAGGGCACGTGAGAGGTCACTGATAGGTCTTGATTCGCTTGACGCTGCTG: 5300 a.u.
CTACAAAAAATGGAGAACATCAGGAACAAAGCGTTCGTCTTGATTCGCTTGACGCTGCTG: 550 a.u.
GAAATTTTAGTATTGCACGTTCTGTTATTCTTGTAGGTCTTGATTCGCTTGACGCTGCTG: 661 a.u.
CTAGGAAAAAGGTTTGTCACGAGCACCTAACTATTCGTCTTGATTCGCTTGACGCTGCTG: 1270 a.u.
CTAGAAGCAGAAATACACGCGATAAGTGAATCTTTCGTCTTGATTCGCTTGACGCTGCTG: 601 a.u.
GAATCCTTTTCATCTTATGTGACTGTCATTCATTAGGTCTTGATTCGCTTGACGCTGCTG: 522 a.u.
CTATTATTATGATCGCTCGTGACGGATCGTCTTTTCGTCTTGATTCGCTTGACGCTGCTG: 1050 a.u.
CTAAGGAAAATAAAATTCGTGATAAATACATGCTTCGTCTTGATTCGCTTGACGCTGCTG: 561 a.u.
CTATATAATGCAAATTACGTGAGCCGCTCTTGTTTCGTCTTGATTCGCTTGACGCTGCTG: 517 a.u.
GAATTCAGAACTTATCACGAACAACGATGTGGTTAGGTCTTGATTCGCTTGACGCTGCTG: 509 a.u.
CTAGATTGCGTTCGTGATTTGAAAAGCAGCGTTTTCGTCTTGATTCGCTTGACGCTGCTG: 667 a.u.
GAAGTAGCTCTTTATCACGCACACCTCATTTGCTAGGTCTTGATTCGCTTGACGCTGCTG: 604 a.u.
GAACTTTTTTTTGCAATCGTGATTACAGAAAAATAGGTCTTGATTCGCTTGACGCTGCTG: 754 a.u.
CTATTGGTCTTTCATCAGATGATATGCCAGATATTCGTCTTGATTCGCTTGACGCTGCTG: 625 a.u.
CTAAGAGAAATTTCCCGCCACATGAACTGAGTCTTCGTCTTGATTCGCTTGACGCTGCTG: 576 a.u.
GAATTTGGGTCACCGTACGTGAACATTGGTTTGTAGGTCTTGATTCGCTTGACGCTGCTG: 585 a.u.
